{"data": "Published values of several laboratories", "note": "A part holds a random share of what one study measured."}
{"data": "Study 1", "target": "Interferon regulatory factor 5, full length, phosphomimetic (IRF5, Homo sapiens, UniProt Q13568-2, residues 1-514, S451D/S453D/S456D/S462D)", "technique": "protein-binding microarray", "molecule type": "double-stranded DNA, one strand shown", "sample": "in vitro", "tested at": "940 nM top", "notes": "60-bp whole probe", "added": "salmon DNA 0.4 mg/ml", "baseline": "random background probes", "reading": "higher = stronger binding", "all sequences stand within": "GCCTAGCAC … GTCTTGATTCGCTTGACGCTGCTG"}
{"Sequence": "TCACCTCTGGGCTGTTTGACTGTGCTA", "fitted relative affinity": "0.0192 z-score"}
{"Sequence": "TGAGATTTCGGGTTTCGATTAGTGCTA", "fitted relative affinity": "5.76 z-score"}
{"Sequence": "TTTGTAATCGAAATCTTCATGTGCTAG", "fitted relative affinity": "-0.174 z-score"}
{"Sequence": "ACAGCTCACGCTTTGGAAAGGTGCTAG", "fitted relative affinity": "-0.246 z-score"}
{"Sequence": "GTTTTTTTCTATATGCAATGGTGCTAG", "fitted relative affinity": "1.55 z-score"}
{"Sequence": "GACGGTATCGCCACTGGGGACGTGCTA", "fitted relative affinity": "1.97 z-score"}
{"Sequence": "TCAAGTTTCACTTTCCAACTGTGCTAG", "fitted relative affinity": "8.07 z-score"}
{"Sequence": "GACGGTGTCCTACTGCTGACGTGCTAG", "fitted relative affinity": "-0.61 z-score"}
{"Sequence": "TTAAATATCGGGTATCGATTAGTGCTA", "fitted relative affinity": "3.21 z-score"}
{"Sequence": "TCATCTGTCATGTTTGTCACTGTGCTA", "fitted relative affinity": "0.518 z-score"}
{"Sequence": "TTAGGACTGGGGTATCGCTTAGTGCTA", "fitted relative affinity": "0.617 z-score"}
{"Sequence": "TTAGAACTGAGTCTCAATTAGTGCTAG", "fitted relative affinity": "0.344 z-score"}
{"Sequence": "TTAGGTTTCGGTCTCCGTTAGTGCTAG", "fitted relative affinity": "15.9 z-score"}
{"Sequence": "TGTGAAACCTTCAGGCACGTGTGCTAG", "fitted relative affinity": "-0.074 z-score"}
{"Sequence": "TCATATGTCTGTTTTTGACTGTGCTAG", "fitted relative affinity": "0.432 z-score"}
{"Sequence": "TTAGGTTTCGTTATCGGTTAGTGCTAG", "fitted relative affinity": "9.72 z-score"}
{"data": "Study 2", "target": "Phosphate system positive regulatory protein PHO4, full length, GST-tagged (PHO4, Saccharomyces cerevisiae, UniProt P07270, residues 1-312)", "technique": "competition protein-binding microarray", "molecule type": "double-stranded DNA, one strand shown", "sample": "in vitro", "tested at": "2 µM", "notes": "whole 60-bp probe, lowest competitor level", "added": "Cbf1 competitor, 0.05 µM", "reading": "higher = stronger binding", "all sequences stand within": "… GTCTTGATTCGCTTGACGCTGCTG", "Target sequence (chain)": "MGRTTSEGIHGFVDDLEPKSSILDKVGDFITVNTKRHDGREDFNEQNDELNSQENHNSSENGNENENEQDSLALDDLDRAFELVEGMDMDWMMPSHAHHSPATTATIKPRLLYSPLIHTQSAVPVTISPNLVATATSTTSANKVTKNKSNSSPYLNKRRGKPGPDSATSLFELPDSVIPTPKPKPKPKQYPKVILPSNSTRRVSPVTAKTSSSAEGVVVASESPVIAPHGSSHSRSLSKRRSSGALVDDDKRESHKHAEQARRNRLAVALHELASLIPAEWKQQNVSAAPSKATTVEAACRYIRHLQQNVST"}
{"Sequence": "TGGACGTCAAGATTCTCCGTGACTCGGGCTCTTTTC", "fluorescence intensity": "2220 a.u."}
{"Sequence": "CCTACCATTGCATCGGGCGTGATGGTACACCAACCA", "fluorescence intensity": "5180 a.u."}
{"Sequence": "CATACCCAACCTTGGTTGGTGGGTGAAGATATTTGT", "fluorescence intensity": "3430 a.u."}
{"Sequence": "GTCTTGTCTCATTGGATTGTGGGTGTCCCCACTTCA", "fluorescence intensity": "5860 a.u."}
{"Sequence": "ATTCAGGCGGGTTGCCACGTGGCCGTTTATCTAATG", "fluorescence intensity": "21600 a.u."}
{"Sequence": "CCACTTTTTTTCAAATGTGTGACGAACCCATACCCC", "fluorescence intensity": "5480 a.u."}
{"Sequence": "AGAGGCCCCAGGAGCAACGTGATGGTATAACTGCCC", "fluorescence intensity": "11600 a.u."}
{"Sequence": "TTCGTCTTCTTCGTCACCGTGACGGGAGCTCTTCGG", "fluorescence intensity": "3840 a.u."}
{"Sequence": "GGGTACTGGTGCCGTCACGTGTGGACCATCTAATTC", "fluorescence intensity": "13700 a.u."}
{"Sequence": "CGGGGTTAAGTTTGGTCAGTGGGTGGCTTGCAGCAG", "fluorescence intensity": "4320 a.u."}
{"Sequence": "CATACCCAACCTTGCAACGTGGGTGAAGATATTTGT", "fluorescence intensity": "15400 a.u."}
{"Sequence": "AGCTCTCTTGTCAGACACGTTTTGTCGAATTTCTTG", "fluorescence intensity": "11500 a.u."}
{"Sequence": "CTAACGAAGGTTTGTCACGCTACTTACAAGCCAAGT", "fluorescence intensity": "5300 a.u."}
{"Sequence": "TGTGAGGAACAAGCCCACATGTTGAGTTTAAGATGG", "fluorescence intensity": "11000 a.u."}
{"Sequence": "CACCTCCCGGTATTCAAGATGATGACAGTGAAGAGA", "fluorescence intensity": "4820 a.u."}
{"Sequence": "GTCTTGTCTCATTTTCACGTGTAATTCCCCACTTCA", "fluorescence intensity": "10900 a.u."}
{"Sequence": "AAATTGGCCACAAGCATCGTGCCGAGCAAATTAAAC", "fluorescence intensity": "12100 a.u."}
{"Sequence": "GTCTTGTCTCATTGTCACCTGACTTTCCCCACTTCA", "fluorescence intensity": "4380 a.u."}
{"Sequence": "AAAGAGCATTCGAGTCACGTGTATACATTCAAGTGA", "fluorescence intensity": "14000 a.u."}
{"Sequence": "AAATTACTAAGTTTTCACGTGAAGTACCCCGTATGA", "fluorescence intensity": "9090 a.u."}
{"data": "Study 3", "target": "RING finger protein unkempt homolog, zinc fingers 1-6, GST-SBP tag (UNK, Homo sapiens, UniProt Q9C0B0, residues 30-357)", "technique": "RNA Bind-n-Seq", "molecule type": "RNA", "sample": "in vitro", "tested at": "not given", "notes": "RNA with constant flanks, human-mouse chimeric sites, ends assumed", "baseline": "input RNA pool", "reading": "higher = stronger binding", "all sequences stand within": "GGGAGUUCUACAGUCCGACGAUC … CAACAGAGGAUUGAGCAUCA", "sequence of UniProt Q9C0B0 (30-357, looked up)": "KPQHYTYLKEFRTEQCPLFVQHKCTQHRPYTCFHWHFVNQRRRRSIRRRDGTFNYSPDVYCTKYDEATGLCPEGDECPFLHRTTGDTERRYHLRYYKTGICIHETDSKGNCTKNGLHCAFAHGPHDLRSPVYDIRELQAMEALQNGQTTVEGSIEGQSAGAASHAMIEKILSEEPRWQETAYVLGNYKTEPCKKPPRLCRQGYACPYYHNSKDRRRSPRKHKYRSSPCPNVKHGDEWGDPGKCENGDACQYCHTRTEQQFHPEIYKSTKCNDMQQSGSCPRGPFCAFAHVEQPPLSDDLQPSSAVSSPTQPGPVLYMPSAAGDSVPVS"}
{"Sequence": "ACUCUUGACUCUUUCCAUUCUCGUCCCUUCCCUCUUGAUAUUCAAGGCCAUGAAUCCCAAAAUAACAAUCUAUCUUACUAGCACCCAAACAGAGGUGGAAUAAAUCCACCCCAGUGUCUC", "bound/input enrichment [ratio]": 0.851}
{"Sequence": "CCUCUGCCCCGCUCUGCAGCCUGGGGACACUGGGCUGGGACCAGAAUCCAGCUUUCUUUUAAAACUCUCAGUGUAACUGUAUCCCGUGACAUUUCAUUUUUUUUUUAUAGUGUAUUUUUU", "bound/input enrichment [ratio]": 16}
{"Sequence": "AGUGUGCAGGAAUUCAUGACCUUUACAAGUCAACUGAUUGUGGAACGCUCAUCGAAAGGCAGCAGAGCUUCUGUCAAAGAACAAGAGUAUCUUUGCCAUGUCUACGUCCGGAAUGAUAGU", "bound/input enrichment [ratio]": 0.13}
{"Sequence": "CACUCGAGCCAGCACCAUUUCUGUUUCUCCCUGGGCUGCGGAAAGCCAGAAGAUUUUAUCUAGCUUAUACAAGGCUGCUGGUGUUCCCUCUUUUUUUCCACGAGGGUGUUUUUGGCUGCA", "bound/input enrichment [ratio]": 0.602}
{"Sequence": "AAAUCGUGUGUGUCAAAUAUUGAAAGUGCUUUAUCUACACUCCAGUAUGUAAGCAGCAUAGUAGUUUCUUUAGAGAAUAGGUCAGCCAUUGUAAAGUACAAUGCAAGCUUAGUCACUCCA", "bound/input enrichment [ratio]": 13.6}
{"Sequence": "GCUCUUGGGAAUGUAAUCAGCGCCUUGGGGGACAAGAGCAAGAGAGCCACCCAUGUCCCUUACAGAGAUUCCAAGCUAACAAGACUAUUGCAGGAUUCCCUUGGGGGUAACAGCCAAACC", "bound/input enrichment [ratio]": 0.138}
{"Sequence": "GAGUCGAGCAAACUUGAAACAAUUCGUUAUCUUGCAGCCUCAGUGUUCACUUGCUUGGCGAUAGCAUUGGGGUUUUAUAGGUUCUGGGGAAGUAGUAGACGAUGAUGCUGCCGCUGCUGC", "bound/input enrichment [ratio]": 0.79}
{"Sequence": "UACUCAACUUUCUUUCCACAUUUUGAAUUCCAAGAUGUUAUUCCUCCAGAUGACUUCCUAACGAGUGAUGAAGAGCAAGAUUUGGUUUUAUUUGGAACUAUGAGAGGACAAGUUGUUGGA", "bound/input enrichment [ratio]": 0.177}
{"Sequence": "UUUGUAAUAUCUGUAAAAGGUUCCCCCCCCCUACUGUCAAAAAAUAUGCAUGUAUAGUAAUUAGGACUUCAUUCCUCCAUGUUUUCUUCCCUUAUCUUACUGUCAUUGUCCUUAAACCUU", "bound/input enrichment [ratio]": 2.93}
{"Sequence": "GGAAUUGCUGAUUCAAGUAAGUUUGAGUAUCACAAUGUUAGCUUUCUAAUUCCAUAAAAGUACUUGGUACAGUUUCUUUAUAAUCUGACAUCACCCCAGCGCCAUUUGUAAAGAGCAACU", "bound/input enrichment [ratio]": 0.855}
{"Sequence": "UUGCUACUGACUCCCUGGGUCAAGUUCCUGUGGGAAUCAUACAGGCAGUGUUUGGACCUUCUUCGAAACAAUUCUAGAGUAGAGCGCCUUUACCAUGAUAUUGCCCAACAAGCUUUCAAA", "bound/input enrichment [ratio]": 0.101}
{"data": "Study 4", "target": "RNA binding protein fox-1 homolog 2, RRM domain, GST-SBP tag (RBFOX2, Homo sapiens, UniProt O43251-10, residues 100-194)", "technique": "RNA Bind-n-Seq", "molecule type": "RNA", "sample": "in vitro", "tested at": "365 nM", "notes": "natural RNA segment, single round, ends assumed", "baseline": "no-protein control", "reading": "higher = stronger binding", "all sequences stand within": "GGGAGUUCUACAGUCCGACGAUC … UGGAAUUCUCGGGUGCCAA", "Residues (chain)": "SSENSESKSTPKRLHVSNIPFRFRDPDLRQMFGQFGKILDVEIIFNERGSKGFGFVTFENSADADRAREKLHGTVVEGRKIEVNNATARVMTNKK"}
{"Sequence": "GCUGCUGUUGGGCUUUCGUUUCUGCAAUUCAGCUUUGUUUAAAGUGAUUUGAAAAAUACUCAUUCUGAACAUAUCCAUGCGCAAUCAUGAUAACUGUUGUGAGUAGUGCU", "RBNS enrichment (R)": 0.268}
{"Sequence": "CAAACUUCAUUGUUGCUUUCUCUUCUGGCCUUGUAAUGUUUGAGUCAAGCCCUGCUUCUCAGCUAGUGAGCAUCAGCCCAAAGUCAGAACUCACAGGGGAUUCUCUGCAU", "RBNS enrichment (R)": 1.25}
{"Sequence": "GUUUUCCUGACUUCCAGCCUUGCCUGACUCACCGGGAUCCUUAUGUUUGGGCCUUCCCCAUCCUAUUGGACUGGCUGAUGCUCCUAGUUUAUAAUGUUCUGGCGUUGUAG", "RBNS enrichment (R)": 0.448}
{"Sequence": "GGGACCAUGCUGCCCCCACUCCCGCUUUUGUUGGGGCUCUAAGUUCUGGAAGGUGUGUGCACAGAGGGUGCUCAUGGGACUCGCAUGCAGCUCUCAGCACUGGGUGGGAG", "RBNS enrichment (R)": 15.3}
{"Sequence": "AAUUCUUAAAGUGGUGGGGUAUUAGUACUAGUAGUUUUAUGUUGUCUAAUUCUAGCCAAGCUUCUGUGUGAAGCUAUAAGGUCUGUGAAUGCCAUACGGCCCUUUAUUGC", "RBNS enrichment (R)": 3.42}
{"Sequence": "AACUGCUGUUCUGUUUCGUUGAUUGCAUCGAGCAUGUUUCUAUAUAAGGUGGGUACUCUGAGCAGCCUGCCCUGCCUCUCGUGCUUUGAAAUUCUUUUGGUAGAAAUCCC", "RBNS enrichment (R)": 0.758}
{"Sequence": "AGAAAGAGCCAAAUAUGAUGAUCACAGCUUAUAGUAGCAGUAAAACUGUUUUCUUUCUUUUUUCCUGUCUCCCUCCCGUCCUUUGUGGUGGGAGGGCAGGAGGCCCAAUG", "RBNS enrichment (R)": 0.28}
{"Sequence": "UUUGAAGUAUUAGAACAAAGUGUGCCAUGAGAGAAAAACUUAACAAGGAGUUUUGAAAAGAAAUGCAAAGAACAAAACUACAACACUAUUUUUUAAAAAGUUGAGUAUCU", "RBNS enrichment (R)": 1.32}
{"Sequence": "GUGGAAUAGAUAAUUUGCUGCAUGUUAAUUCUCAAGAACUAAGCCUGUGCCAGUGCUUUCCUAAGCAGUAUACCUUUAAUCAGAACUCAUUCCCAGAACCUGGAUGCUAU", "RBNS enrichment (R)": 4.69}
{"note": "Some of these lines once more (study 3):"}
{"Sequence": "CACUCGAGCCAGCACCAUUUCUGUUUCUCCCUGGGCUGCGGAAAGCCAGAAGAUUUUAUCUAGCUUAUACAAGGCUGCUGGUGUUCCCUCUUUUUUUCCACGAGGGUGUUUUUGGCUGCA", "bound/input enrichment [ratio]": 0.602}
{"Sequence": "AAAUCGUGUGUGUCAAAUAUUGAAAGUGCUUUAUCUACACUCCAGUAUGUAAGCAGCAUAGUAGUUUCUUUAGAGAAUAGGUCAGCCAUUGUAAAGUACAAUGCAAGCUUAGUCACUCCA", "bound/input enrichment [ratio]": 13.6}
{"Sequence": "GCUCUUGGGAAUGUAAUCAGCGCCUUGGGGGACAAGAGCAAGAGAGCCACCCAUGUCCCUUACAGAGAUUCCAAGCUAACAAGACUAUUGCAGGAUUCCCUUGGGGGUAACAGCCAAACC", "bound/input enrichment [ratio]": 0.138}
